Experimental data collected from several papers.
Compare with care: the assays were run in different laboratories. Several values in a cell are separate wells, animals, samples, runs or records. ± marks the error that the study gave.
Sequence of UniProt O08914 (whole entry, looked up): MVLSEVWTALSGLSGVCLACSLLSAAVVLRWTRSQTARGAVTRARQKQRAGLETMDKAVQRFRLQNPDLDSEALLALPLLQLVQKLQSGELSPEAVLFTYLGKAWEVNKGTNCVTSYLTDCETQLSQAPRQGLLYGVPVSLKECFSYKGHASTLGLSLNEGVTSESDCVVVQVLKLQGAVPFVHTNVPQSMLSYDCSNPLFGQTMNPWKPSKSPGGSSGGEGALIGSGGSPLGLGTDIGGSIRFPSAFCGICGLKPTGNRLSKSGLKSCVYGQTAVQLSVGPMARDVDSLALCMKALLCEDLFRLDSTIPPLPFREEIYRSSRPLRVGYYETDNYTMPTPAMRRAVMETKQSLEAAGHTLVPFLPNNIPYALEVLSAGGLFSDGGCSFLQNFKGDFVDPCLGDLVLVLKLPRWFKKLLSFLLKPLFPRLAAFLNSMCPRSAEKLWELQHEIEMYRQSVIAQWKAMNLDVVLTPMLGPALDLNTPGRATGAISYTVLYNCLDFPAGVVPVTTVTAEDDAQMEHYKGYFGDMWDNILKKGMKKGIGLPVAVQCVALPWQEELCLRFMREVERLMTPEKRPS
Sequence of UniProt A5GZW8 (whole entry, looked up): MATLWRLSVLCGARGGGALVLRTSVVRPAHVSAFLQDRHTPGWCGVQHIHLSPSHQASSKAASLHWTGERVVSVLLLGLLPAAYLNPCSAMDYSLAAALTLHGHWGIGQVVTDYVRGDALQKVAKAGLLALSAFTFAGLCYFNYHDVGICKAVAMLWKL
Sequence of UniProt Q007T0 (whole entry, looked up): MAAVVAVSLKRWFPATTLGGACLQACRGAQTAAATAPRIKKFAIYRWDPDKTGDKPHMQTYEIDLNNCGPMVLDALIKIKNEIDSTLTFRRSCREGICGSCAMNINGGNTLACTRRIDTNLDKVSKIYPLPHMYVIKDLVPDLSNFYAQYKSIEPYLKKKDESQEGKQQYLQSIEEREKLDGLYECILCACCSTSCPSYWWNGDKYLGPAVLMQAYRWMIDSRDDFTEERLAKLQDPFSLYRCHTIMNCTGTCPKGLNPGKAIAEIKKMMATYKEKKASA
Sequence of UniProt D0VWV4 (whole entry, looked up): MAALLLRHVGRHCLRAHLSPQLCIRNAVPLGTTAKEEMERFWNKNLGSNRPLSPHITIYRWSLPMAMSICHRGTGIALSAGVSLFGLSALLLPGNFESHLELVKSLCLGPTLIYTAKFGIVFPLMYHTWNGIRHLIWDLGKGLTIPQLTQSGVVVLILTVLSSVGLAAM
Sequence of UniProt P42685 (whole entry, looked up): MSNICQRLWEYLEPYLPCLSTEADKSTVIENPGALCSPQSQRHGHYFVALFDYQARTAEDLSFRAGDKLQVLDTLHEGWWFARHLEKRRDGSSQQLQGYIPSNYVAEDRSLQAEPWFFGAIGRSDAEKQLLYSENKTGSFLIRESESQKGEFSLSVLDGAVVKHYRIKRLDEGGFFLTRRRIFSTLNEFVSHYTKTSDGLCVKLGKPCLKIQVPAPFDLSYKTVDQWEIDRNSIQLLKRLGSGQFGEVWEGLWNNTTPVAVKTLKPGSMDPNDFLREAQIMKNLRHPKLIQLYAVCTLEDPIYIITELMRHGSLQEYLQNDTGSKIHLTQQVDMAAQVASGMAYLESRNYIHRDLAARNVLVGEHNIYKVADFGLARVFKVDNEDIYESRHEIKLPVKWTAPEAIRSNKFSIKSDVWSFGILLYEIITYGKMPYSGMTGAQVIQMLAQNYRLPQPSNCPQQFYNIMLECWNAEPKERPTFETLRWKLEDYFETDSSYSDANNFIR
Sequence of UniProt P42338 (whole entry, unmodified, looked up): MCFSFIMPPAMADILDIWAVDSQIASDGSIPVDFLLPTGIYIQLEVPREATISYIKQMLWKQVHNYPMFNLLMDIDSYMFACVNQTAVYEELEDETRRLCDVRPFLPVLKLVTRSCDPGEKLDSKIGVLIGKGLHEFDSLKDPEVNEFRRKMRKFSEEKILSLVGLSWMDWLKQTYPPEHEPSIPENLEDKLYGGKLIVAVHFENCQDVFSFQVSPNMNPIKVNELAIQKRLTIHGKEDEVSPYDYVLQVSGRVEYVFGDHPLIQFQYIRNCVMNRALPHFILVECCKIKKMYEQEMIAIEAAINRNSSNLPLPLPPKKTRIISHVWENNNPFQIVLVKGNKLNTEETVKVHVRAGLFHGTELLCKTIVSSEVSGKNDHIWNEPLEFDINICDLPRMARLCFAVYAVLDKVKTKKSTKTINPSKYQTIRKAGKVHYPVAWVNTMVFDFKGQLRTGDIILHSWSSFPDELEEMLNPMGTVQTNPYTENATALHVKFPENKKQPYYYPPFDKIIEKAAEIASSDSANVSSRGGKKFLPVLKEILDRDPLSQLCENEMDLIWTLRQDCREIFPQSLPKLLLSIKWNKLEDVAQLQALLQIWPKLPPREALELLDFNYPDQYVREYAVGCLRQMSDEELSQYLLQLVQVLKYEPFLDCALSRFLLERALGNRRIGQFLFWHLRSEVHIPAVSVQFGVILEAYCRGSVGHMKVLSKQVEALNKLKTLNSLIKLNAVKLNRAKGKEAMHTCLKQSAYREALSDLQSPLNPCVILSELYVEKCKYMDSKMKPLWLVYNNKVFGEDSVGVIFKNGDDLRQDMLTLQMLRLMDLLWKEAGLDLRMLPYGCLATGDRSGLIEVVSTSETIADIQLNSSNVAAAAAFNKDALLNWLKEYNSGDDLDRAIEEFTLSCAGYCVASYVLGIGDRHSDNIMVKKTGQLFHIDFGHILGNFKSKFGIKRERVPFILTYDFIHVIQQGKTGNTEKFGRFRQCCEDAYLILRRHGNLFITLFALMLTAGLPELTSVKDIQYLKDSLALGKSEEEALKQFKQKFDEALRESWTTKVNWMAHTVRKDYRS
Sequence of UniProt P07332 (whole entry, looked up): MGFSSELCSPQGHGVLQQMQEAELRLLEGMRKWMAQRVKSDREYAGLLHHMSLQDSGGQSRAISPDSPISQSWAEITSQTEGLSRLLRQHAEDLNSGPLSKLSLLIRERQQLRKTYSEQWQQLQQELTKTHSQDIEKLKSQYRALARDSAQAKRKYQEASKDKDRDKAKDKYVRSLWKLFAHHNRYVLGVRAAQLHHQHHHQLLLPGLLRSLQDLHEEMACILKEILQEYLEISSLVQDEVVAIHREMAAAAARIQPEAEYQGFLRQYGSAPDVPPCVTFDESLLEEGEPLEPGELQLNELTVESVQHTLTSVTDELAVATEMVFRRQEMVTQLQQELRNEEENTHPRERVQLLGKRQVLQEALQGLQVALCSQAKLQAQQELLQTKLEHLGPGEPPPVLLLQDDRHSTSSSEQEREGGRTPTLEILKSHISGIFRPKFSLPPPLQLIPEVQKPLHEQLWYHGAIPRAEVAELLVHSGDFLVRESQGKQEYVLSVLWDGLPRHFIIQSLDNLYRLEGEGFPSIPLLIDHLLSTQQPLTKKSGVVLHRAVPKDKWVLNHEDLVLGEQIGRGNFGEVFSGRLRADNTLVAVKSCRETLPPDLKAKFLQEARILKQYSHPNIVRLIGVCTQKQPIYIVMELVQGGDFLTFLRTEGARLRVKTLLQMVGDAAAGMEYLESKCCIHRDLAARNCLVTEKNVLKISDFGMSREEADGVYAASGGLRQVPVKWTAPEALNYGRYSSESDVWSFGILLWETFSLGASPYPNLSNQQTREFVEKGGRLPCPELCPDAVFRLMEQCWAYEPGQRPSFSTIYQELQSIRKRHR
Sequence of UniProt Q96S44 (whole entry, looked up): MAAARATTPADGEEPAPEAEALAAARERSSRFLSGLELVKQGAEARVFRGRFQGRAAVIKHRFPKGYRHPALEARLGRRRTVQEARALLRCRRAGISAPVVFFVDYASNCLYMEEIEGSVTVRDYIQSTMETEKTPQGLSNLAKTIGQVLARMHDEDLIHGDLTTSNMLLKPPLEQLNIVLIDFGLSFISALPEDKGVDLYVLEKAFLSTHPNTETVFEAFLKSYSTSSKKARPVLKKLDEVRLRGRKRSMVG
Sequence of UniProt Q15375 (whole entry, looked up): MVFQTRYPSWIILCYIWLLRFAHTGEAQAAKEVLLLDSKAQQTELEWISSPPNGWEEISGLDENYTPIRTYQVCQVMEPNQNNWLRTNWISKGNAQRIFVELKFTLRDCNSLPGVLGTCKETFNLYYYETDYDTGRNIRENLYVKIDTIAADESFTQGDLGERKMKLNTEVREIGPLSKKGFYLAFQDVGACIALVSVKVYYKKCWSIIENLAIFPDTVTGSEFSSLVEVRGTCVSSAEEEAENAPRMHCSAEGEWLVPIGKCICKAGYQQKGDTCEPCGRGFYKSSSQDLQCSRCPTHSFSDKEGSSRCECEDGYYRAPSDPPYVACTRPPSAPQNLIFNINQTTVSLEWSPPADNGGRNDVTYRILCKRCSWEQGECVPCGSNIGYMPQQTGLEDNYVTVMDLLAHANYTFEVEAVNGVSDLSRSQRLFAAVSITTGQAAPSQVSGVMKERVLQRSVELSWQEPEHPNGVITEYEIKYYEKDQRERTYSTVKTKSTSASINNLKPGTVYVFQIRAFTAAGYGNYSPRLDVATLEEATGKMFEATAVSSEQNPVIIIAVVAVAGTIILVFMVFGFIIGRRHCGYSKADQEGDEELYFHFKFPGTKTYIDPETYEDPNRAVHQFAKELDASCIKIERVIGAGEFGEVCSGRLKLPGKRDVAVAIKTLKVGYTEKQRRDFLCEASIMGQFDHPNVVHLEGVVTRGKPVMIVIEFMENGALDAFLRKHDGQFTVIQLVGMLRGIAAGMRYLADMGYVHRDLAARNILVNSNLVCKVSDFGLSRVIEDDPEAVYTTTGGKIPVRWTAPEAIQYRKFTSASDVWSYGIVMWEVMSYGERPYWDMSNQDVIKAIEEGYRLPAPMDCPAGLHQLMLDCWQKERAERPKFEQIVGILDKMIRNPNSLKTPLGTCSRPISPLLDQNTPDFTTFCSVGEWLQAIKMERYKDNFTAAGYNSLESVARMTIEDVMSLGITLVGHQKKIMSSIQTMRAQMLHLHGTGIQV

SMILES | tested on | test | test system | setting | scale | measurement | result
C#CCCCCOc1ccc2c(c1)CCCN2C(=O)CCl | CD151 antigen (CD151, Homo sapiens, UniProt P48509) | mass spectrometry profiling, refers to: CD151 | H460 cell lysate | 100 µM over 10 µM, UniProt P48509 | relative to: high over low concentration | reactivity ratio | 1.51
CCCC[C@H]1CNCCN1C[C@@H]1CCCN1C[C@@H](Cc1ccc2ccccc2c1)N1CCN(CCc2ccc(Cl)c(Cl)c2)[C@H]([C@H](C)CC)C1 | Oprd1 (Rattus norvegicus, UniProt P33533) | radioligand binding | rat brain membranes | 500 nM, pH 7.5, 25 °C, added: 2 nM [3H]DPDPE |  | remaining binding | 88.4%
CC(C)CC(O)(CC(C)C)c1cn(C(=O)N2CCCC2)nn1 | Faah (Mus musculus, UniProt O08914) | probe labelling, inhibitor, competitive ABPP-SILAC | mouse T cells | concentration not given, 4 h, single peptide | relative to: treated over DMSO cells, lower = stronger inhibition | SILAC activity ratio | 1.25 and 1.21 and 1.31 and 1.26 and 1.22 and 1.32 and 1.2 and 1.18
N[C@H](C(=O)N1CCCC1)C1CCN(c2nccc3c(-c4ncc(Cl)cc4Cl)cccc23)CC1 | Aurora kinase A (AURKA, Homo sapiens, UniProt O14965) | enzyme activity, inhibitor |  | 10 µM |  | inhibition | -4%
CCn1nc(Cl)c2c1-c1cnc(N)c(c1)O[C@H](C)c1cc(F)ccc1-c1nn(C)cc1C2 | FRK (Homo sapiens, UniProt P42685) | kinase activity, inhibitor |  |  | relative to: IC50 FRK over IC50 ALK | selectivity ratio | 315 fold
Cc1nnc(C(C)C)n1C1CC2CCC(C1)N2CCC(NC(=O)Cc1ccc(-c2nncnn2)cc1)c1ccccc1 (stereo not shown) | CCR5 (Homo sapiens, UniProt P51681) | calcium mobilisation, antagonist | HEK-293T expressing CCR5 | top constrained to 1, added: PSC-RANTES |  | bottom of curve | 0.124 fraction of maximum
O=C1NC2(CC2)COc2ncc(F)cc2[C@H]2COCCN2c2ccn3ncc1c3n2 |  |  | Sprague-Dawley rat, female, spleen | oral, 5 mg/kg/day, 4 weeks |  | organ weight | 1.08 ± 0.146 g
CON(C(=O)c1cn(C)nc1C(F)F)C(C)Cc1c(Cl)cc(Cl)cc1Cl (stereo not shown) | SDHD/SDHC/SDHB (Sus scrofa, UniProt A5GZW8+D0VWV4+Q007T0) | enzyme activity, inhibitor, DCIP reduction | pig | 1 µM, added: DCIP 20 µM |  | reaction velocity | 0.00203 µM/s and 0.00195 µM/s
CS(C)(=O)=Nc1ccc(-c2ccc(-c3nc4cc(O[C@@H]5CO[C@H]6[C@@H]5OC[C@H]6O)[nH]c4cc3F)cc2)cc1 | PRKG1 (Homo sapiens, UniProt Q13976) | enzyme activity, inhibitor |  | 10 µM |  | inhibition | -13%
CC(C)[C@H]1NC(=O)C[C@H]2/C=C/CCSSC[C@@H](NC1=O)C(=O)N[C@H](Cc1cccc3ccccc13)C(=O)NCC(=O)O2 | EPHA7 (Homo sapiens, UniProt Q15375) | enzyme activity, inhibitor |  | 10 µM |  | inhibition | 2.3%
CN(C)[C@H]1C[C@@]23CC[C@@]4(O2)C(=CC[C@]2(C)[C@@H](c5ccc6ccncc6c5)CC[C@H]24)C=C3[C@@H](O)[C@@H]1O | TP53RK (Homo sapiens, UniProt Q96S44) | ATP probe labelling, inhibitor, KiNativ profiling |  | 1 µM |  | inhibition | 21.5%
CCN(N=Cc1cnc2ccc(Br)cn12)S(=O)(=O)c1cc([N+](=O)[O-])ccc1C | PIK3CB (Homo sapiens, UniProt P42338, M783K) | luminescence |  |  | relative to: wild-type p110β | IC50 fold decrease | 2 fold
O=C1NC(=O)c2c1c1cc(F)c[n+]3c1c1c2c2cc(O)ccc2[n]1[Ru-4]312([N]=C=S)[S+]3CC[S+]1CC[S+]2CC3 (stereo not shown) | FES (Homo sapiens, UniProt P07332) | enzyme activity |  | 100 nM, human enzyme, added: 10 µM ATP | relative to: untreated | remaining activity | 69%

Excerpt of the above:
SMILES | tested on | test | test system | setting | scale | measurement | result
CON(C(=O)c1cn(C)nc1C(F)F)C(C)Cc1c(Cl)cc(Cl)cc1Cl (stereo not shown) | SDHD/SDHC/SDHB (Sus scrofa, UniProt A5GZW8+D0VWV4+Q007T0) | enzyme activity, inhibitor, DCIP reduction | pig | 1 µM, added: DCIP 20 µM |  | reaction velocity | 0.00203 µM/s and 0.00195 µM/s
CS(C)(=O)=Nc1ccc(-c2ccc(-c3nc4cc(O[C@@H]5CO[C@H]6[C@@H]5OC[C@H]6O)[nH]c4cc3F)cc2)cc1 | PRKG1 (Homo sapiens, UniProt Q13976) | enzyme activity, inhibitor |  | 10 µM |  | inhibition | -13%
